Experimental data pooled from the literature.
Numbered parts are unrelated; each lists some results of a single study.

Sample 1 — technique: protein-binding microarray; form: double-stranded DNA, one strand shown; medium: in vitro; tested at: not given; reading: higher = stronger binding
Target: Hepatocyte nuclear factor 3-beta, forkhead domain (FOXA2, Homo sapiens, UniProt Q9Y261, residues 142-269)
Setting: k-mer, scored over probes, only values ≥0.25
Target sequence (chain): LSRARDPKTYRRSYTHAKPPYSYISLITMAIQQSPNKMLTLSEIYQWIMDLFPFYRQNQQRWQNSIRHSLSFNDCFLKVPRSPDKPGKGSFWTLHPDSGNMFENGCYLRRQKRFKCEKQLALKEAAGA
The E-score of `ATTGTACG` is reported as 0.255.
`ATAAACGG` has an E-score of 0.279.
`TATCCGCA` has an E-score of 0.302.
With `AATGTTGA` the E-score was 0.349.

Sample 2 — technique: protein-binding microarray; form: double-stranded DNA, one strand shown; medium: in vitro; tested at: 250 nM; setting: 60-bp whole probe; together with: salmon DNA 0.4 mg/ml; reference: random background probes; reading: higher = stronger binding
Target: Interferon regulatory factor 5, full length, phosphomimetic (IRF5, Homo sapiens, UniProt Q13568-2, residues 1-514, K96S/S451D/S453D/S456D/S462D)
For `GCCTAGCACTTAGATCTCAGTATCGATTTGTGCTAGGTCTTGATTCGCTTGACGCTGCTG`, the log fluorescence was 6.15 z-score.
For `GCCTAGCACTTTGGACTGGGGACTGGGTTAGTGCTAGTCTTGATTCGCTTGACGCTGCTG`, the log fluorescence was -0.245 z-score.
For `GCCTAGCACTTTGGTTTCGGTCTCGGTTAGTGCTAGGTCTTGATTCGCTTGACGCTGCTG`, the log fluorescence was 11.3 z-score.

Sample 3 — technique: protein binding microarray; form: double-stranded DNA, one strand shown; medium: in vitro; tested at: not given; reference: not given; reading: higher = stronger binding
Target: Histone acetyltransferase KAT6A, both winged helices, GST fusion (KAT6A, Homo sapiens, UniProt Q92794, residues 1-181)
Setting: 8-mer, flanks averaged, mean of 2 arrays, mostly near background
Construct (chain): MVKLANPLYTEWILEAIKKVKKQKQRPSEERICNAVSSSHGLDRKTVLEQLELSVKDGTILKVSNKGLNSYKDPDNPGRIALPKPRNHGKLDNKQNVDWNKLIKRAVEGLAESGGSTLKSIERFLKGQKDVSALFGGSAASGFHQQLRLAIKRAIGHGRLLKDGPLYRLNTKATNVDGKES
The E-score of `CGACGCCA` is reported as 0.172.
The E-score of `GAGCGACA` is reported as 0.0379.
`ACAACAAC` gave an E-score of -0.15.

Other studies, line by line
For `PhoQ, residues 284 288 289 292 302 303 AGHLVA`, the fold induction was 7 (PhoP, residues 12 14 15 18 19 GQAIL (Escherichia coli, UniProt P23836); Sort-seq, refers to: YFP reporter; E. coli; PhoQ-PhoP variant library, together with: 10 µM Mg2+; reference: high Mg2+ state, higher = stronger signaling).

Repeated from above (sample 2):
For `GCCTAGCACTTTGGTTTCGGTCTCGGTTAGTGCTAGGTCTTGATTCGCTTGACGCTGCTG`, the log fluorescence was 11.3 z-score.
